Published values from different studies.
A part holds a random share of what one study measured.

Study 1 — method: protein binding microarray; form: double-stranded DNA, one strand shown; medium: in vitro; tested at: not given; reference: not given; reading: higher = stronger binding
Target: Histone acetyltransferase KAT6A, winged helix 2, GST fusion (KAT6A, Homo sapiens, UniProt Q92794, residues 85-181)
Setting: 8-mer, flanks averaged, mean of 2 arrays, mostly near background
Residues (chain): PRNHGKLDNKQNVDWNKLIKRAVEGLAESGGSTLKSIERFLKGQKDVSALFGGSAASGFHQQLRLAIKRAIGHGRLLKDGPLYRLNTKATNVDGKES
Sequence | E-score
CCTACAGG | -0.0851
CCTGTTTC | 0.0576
CACGGTTC | -0.231
CGGGTTCA | 0.142

Study 2 — method: protein-binding microarray; form: double-stranded DNA, one strand shown; medium: in vitro; tested at: 2540 nM top; setting: 60-bp whole probe; with: salmon DNA 0.4 mg/ml; reference: random background probes; reading: higher = stronger binding; shared flanks, not repeated: GCCTAGCAC … GTCTTGATTCGCTTGACGCTGCTG
Target: Interferon regulatory factor 3, full length, phosphomimetic (IRF3, Homo sapiens, UniProt Q14653, residues 1-427, S386D/S396D/S398D/S402D/T404D/S405D)
Target sequence (chain): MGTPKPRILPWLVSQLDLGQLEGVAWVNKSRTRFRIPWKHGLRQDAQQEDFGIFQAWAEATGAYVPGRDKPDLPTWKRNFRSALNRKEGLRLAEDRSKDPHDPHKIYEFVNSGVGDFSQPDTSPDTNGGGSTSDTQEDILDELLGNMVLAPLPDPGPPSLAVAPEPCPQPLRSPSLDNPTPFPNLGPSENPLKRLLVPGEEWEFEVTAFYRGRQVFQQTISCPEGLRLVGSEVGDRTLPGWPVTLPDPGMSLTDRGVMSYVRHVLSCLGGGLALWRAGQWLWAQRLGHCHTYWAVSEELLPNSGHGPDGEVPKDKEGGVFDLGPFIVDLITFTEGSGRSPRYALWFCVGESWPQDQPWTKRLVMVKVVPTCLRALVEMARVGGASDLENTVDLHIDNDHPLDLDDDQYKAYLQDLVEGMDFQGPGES
Sequence | fitted relative affinity
GACGAACTGAGTCTCTAGACGTGCTAG | -0.255 z-score
TTAGAACTGGACTATCGGTTAGTGCTA | -0.283 z-score
GACGGTTTCGACTTTCGGCACGTGCTA | 3.72 z-score
GAAGGTCTCCTTTTCCTGACGTGCTAG | 4.61 z-score
TCAGTCACCCATCTCAAACTGTGCTAG | 1.71 z-score
GACGGACTGCTAGTGCTGACGTGCTAG | -0.835 z-score
TTAGGACTGGGGCTGGGTTAGTGCTAG | -0.896 z-score

Study 3 — target: Sox, HMG box (Pigoraptor chileana); method: Spec-seq; form: double-stranded DNA, one strand shown; medium: in vitro; tested at: not given; setting: whole probe, mean of replicates; reference: not given; reading: lower = stronger binding
Construct (chain): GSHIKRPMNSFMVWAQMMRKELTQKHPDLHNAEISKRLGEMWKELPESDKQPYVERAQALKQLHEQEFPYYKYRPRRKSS
Sequence | relative binding energy
GAGTCGTCTCGTCAGCACACCAGTTCCGTAGAGCACTCAGGTC | 0.0331 ln ratio
GAGTCGTCTCGTCAGCACCATGAGCCCGTAGAGCACTCAGGTC | 0.399 ln ratio
GAGTCGTCTCGTCAGCACCATACGGCCGTAGAGCACTCAGGTC | 0.00931 ln ratio
GAGTCGTCTCGTCAGCACTACGGTTCCGTAGAGCACTCAGGTC | 0.615 ln ratio

Mixed results
Substance | target | test | system | conditions | scale | quantity | value
PhoQ, residues 284 288 289 292 302 303 GLASVI | PhoP, residues 12 14 15 18 19 SPWRL (Escherichia coli, UniProt P23836) | Sort-seq, measured: YFP reporter | E. coli | PhoQ-PhoP variant library, with: 10 µM Mg2+ | reference: high Mg2+ state, higher = stronger signaling | fold induction | 21.2
